Experimental data pooled from the literature.
Each line is one published result; not all experiments were run side by side. Numbers after ± are the reported error.

Cc1ncc2n1-c1ccc(Cl)cc1C(c1ccccc1F)=NC2  terminal half-life (human CYP3A5*1/*3 and *1/*6, serum; geometric mean, together with: ketoconazole 200 mg): 5.69 h
CNC(C)Cc1ccc2c(c1)OCO2 (racemic)  change in heart rate (human; oral, 1.5 mg/kg, mean over session, unit not given; baseline: pre-dose baseline): 16
C[C@H]1CNCCc2ccc(Cl)cc21  plasma concentration (Sprague-Dawley rat, male, plasma; subcutaneous, 1 mg/kg, 240 min): 3.86 ± 0.39 ng/mL
COc1ccc2c(c1)[C@]13CCCC[C@@H]1[C@H](C2)N(C)CC3  CL/F (Wistar rat, both sexes, plasma; oral, 5 mg/kg, 2 h after pretreatment, together with: single TCE 400 mg/kg): 500 ± 167 mL/min/kg
N[C@@]1(c2ccccc2Cl)CC[C@@H](O)CC1=O  dose-normalized Cmax (male CD-1 mice, plasma; intraperitoneal, 5 mg/kg): 155 ± 12.6 ng/mL per mg/kg
CN1CC[C@@]23CCCC[C@@H]2[C@@H]1Cc1ccc(O)cc13  MRT(0-inf) (Wistar rat, both sexes, plasma; oral, 5 mg/kg DEM, DEM 2 h after pretreatment, together with: TCE 100 mg/kg single pretreatment): 8.01 ± 3 h
N[C@]1(c2ccccc2Cl)CCC[C@H](O)C1=O  dose-normalized Cmax (male CD-1 mice, plasma; intraperitoneal, 5 mg/kg): 663 ± 36.4 ng/mL per mg/kg
Cc1ncc(OC[C@@]2(c3cccc(F)c3)C[C@H]2C(=O)Nc2ccc(F)cn2)c(C)n1  treatment-related adverse events (healthy human; 10 mg, together with: fluconazole): 21.4%
N[C@@]1(c2ccccc2Cl)C[C@@H](O)CCC1=O  dose-normalized Cmax (female CD-1 mice, plasma; intraperitoneal, 5 mg/kg): 406 ± 25.9 ng/mL per mg/kg
C=C1C[C@@H]2[C@H](CC[C@]3(C)C(=O)CC[C@@H]23)[C@@]2(C)C=CC(=O)C=C12  median plasma concentration (LC-MS/MS; postmenopausal breast cancer women, plasma; oral, 25 mg/day, 2 h, AKR7A2 A142T heterozygous): 8 ng/mL

A few entries again:
CNC(C)Cc1ccc2c(c1)OCO2 (racemic)  change in heart rate (human; oral, 1.5 mg/kg, mean over session, unit not given; baseline: pre-dose baseline): 16
